Measurements of several laboratories.
Numbered parts are unrelated; each lists some results of a single study.

Block 1 — technique: protein-binding microarray; form: double-stranded DNA, one strand shown; matrix: in vitro; concentration: 940 nM top; setting: 60-bp whole probe; added: salmon DNA 0.4 mg/ml; reference: random background probes; reading: higher = stronger binding; constant ends, left off below: GCCTAGCAC … GTCTTGATTCGCTTGACGCTGCTG
Target: Interferon regulatory factor 5, full length, phosphomimetic (IRF5, Homo sapiens, UniProt Q13568-2, residues 1-514, S451D/S453D/S456D/S462D)
Strand	fitted relative affinity [z-score]
TTAGGAATGCTTATCCTTTAGTGCTAG	-0.441
GACGGACTGGGGGTTCGGGACGTGCTA	0.384
GCTAGTGTGCCATATTTATCTGTGCTA	-0.225
ATCATTTTAGTTTTCATTATGTGCTAG	2.33
GATGGTCTCGGACTGGGGACGTGCTAG	1.6
TTGGGTTTCGACTATCGGTTAGTGCTA	7.11
TTCGGTCTCGGTATCGGTTAGTGCTAG	7.77
TTCCCTTTCTCAACCTCCAGGTGCTAG	2.08
GACGGACTGCTAGTGCTGACGTGCTAG	-0.49
GACGGTTTCGGGACCGGGGACGTGCTA	7.25
TTAGGTTTCCTTTCCCTTTTGTGCTAG	2.11
TTAGATCTAAGTATCGATTAGTGCTAG	3.69
GACGGACTGGGGTATTGGGACGTGCTA	-0.191
GACTGTTCCCTTTTCCTGACGTGCTAG	1.33
AACGGACTGCTTATCCTGACGTGCTAG	-0.0109
GACGGACTGCTACTGCGGACGTGCTAG	-0.635

Block 2 — technique: RNA Bind-n-Seq; form: RNA; matrix: in vitro; concentration: 365 nM; reference: no-protein control; reading: higher = stronger binding
Target: RNA binding protein fox-1 homolog 2, RRM domain, GST-SBP tag (RBFOX2, Homo sapiens, UniProt O43251-10, residues 100-194)
Setting: natural RNA segment, single round, ends assumed
Constant ends, left off below: GGGAGUUCUACAGUCCGACGAUC … UGGAAUUCUCGGGUGCCAA
Target sequence (chain): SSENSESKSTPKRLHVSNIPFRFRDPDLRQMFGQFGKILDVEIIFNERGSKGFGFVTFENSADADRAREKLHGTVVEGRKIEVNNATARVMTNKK
Strand	RBNS enrichment (R)
UAAGAAAACUCGACUUGUUUUUUGUUCAUUUUAAGUGUGUGGUACUAAAAAGACAUGUUAGACUUUUUUUAAAAAAGCACUUAUGUUUUGAAAAUAGAAUAAAUAAUAAG	0.684
AGUGGGGCCUGCACACGUGUUCCUGUCAGAGGCAAGGCUCACAUUCCUUGCCAGCACCUCUUUCUCUGCCCAAUUGAGGGGAACAAAAGGGUGUUCACAGAUGGAGCGAG	0.776
GCUCCCACUCUCGUGGGUGCAAAAGCGGCAGCAAAAAGCAGCCAUUUACUUGGGUACUUAAGAGUUAUUGUAUUAAUAAAAAGUUAUUGACUUGUCCUUUGAGAGCCUUC	0.412
AGUGAUAAUCACAGGAAAAGAUGCCUUCUAAAGACUUGGGCAUAAAAGCUUAAAUAUUCUUUCUUUUAAAUGUCUGUUAAGAAUAUGAUGCCAAUGGCUUGAAUUGAGUU	0.541
GGCAUUCCCUCUAGAUUCAGGUUUGGGCAGGGGUCCUAUAGUCCCUGCCAUGGGGCUGCUUCCCUGUCCCUUCCCUCCCCUUUGCUGGCCUACUCUGGCAUAAUUCAAGU	0.314
UCCUCUUAGACAAUAUUCAUUAAAUCUGAGGACACAGUUUGACAGUAGUUCAGAUUCUUGCAUGAGCAAUUGACAGCAUCAGAGCACACAAUAUCAUAAGUUACAUAAAU	6.33
UCUGGGCAAGUGGAUAUUUAUUAGGCUAUUUCAAAGCCACAGCAUAAGAAUGUCAGCCUAGCCACAGAGUCUGAGAUUCUGAGUUCAGCCUAGCCACAGAGUCUAAGAUU	0.266
GCCUGCCCUUUCCAGCCUCUUCAAAAGAUGCAUCCAAACAACAGGUCUGCAUUUGAUGUAAUGCCUUAAUUACUGGGGCCACAUUCACGUUGACUGUCUCAGAGACUGUA	0.342

Block 3 — technique: RNA Bind-n-Seq; form: RNA; matrix: in vitro; concentration: 200 nM; setting: whole 134-nt RNA, ends assumed; added: 150 mM KCl; reference: input library; reading: higher = stronger binding
Target: Ras GTPase-activating protein-binding protein 1, full length (G3BP1, Homo sapiens, UniProt Q13283)
UniProt Q13283, sequence (whole entry, looked up): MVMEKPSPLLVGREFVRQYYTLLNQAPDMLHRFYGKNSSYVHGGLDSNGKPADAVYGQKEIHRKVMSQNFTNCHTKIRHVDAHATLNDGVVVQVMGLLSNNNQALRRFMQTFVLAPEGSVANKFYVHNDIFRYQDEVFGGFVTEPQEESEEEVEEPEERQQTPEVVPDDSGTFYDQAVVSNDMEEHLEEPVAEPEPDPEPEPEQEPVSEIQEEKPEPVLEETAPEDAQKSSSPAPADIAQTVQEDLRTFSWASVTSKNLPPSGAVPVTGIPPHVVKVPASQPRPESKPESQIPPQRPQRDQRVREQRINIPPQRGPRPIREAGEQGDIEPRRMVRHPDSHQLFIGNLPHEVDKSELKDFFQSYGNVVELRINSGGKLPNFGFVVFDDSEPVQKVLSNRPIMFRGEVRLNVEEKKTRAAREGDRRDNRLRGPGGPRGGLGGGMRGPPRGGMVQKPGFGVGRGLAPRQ
Constant ends, left off below: GGGAGUUCUACAGUCCGACGAUC … UGGAAUUCUCGGGUGUCAAGG
Strand	log2 enrichment
CCUGUGCUACACAUCGUAUGUACCGAAUCGGGGCCCCCCGGGGCCCCCCGGCCCCCCGGGGAAAGUAUUAUGUUACGCCGUUCGGAUCUG	-0.817
CUGUGCUACACAUCGUAUGUACCGAAUCGGAAAAAAAGGGGAAAAAAAGGGGAAAAAAAGGGAAAGUAUUAUGUUACGCCGUUCGGAUCU	-0.763
CUCAAGUCCUGUGCUACACAUCGUAUGUACCGAAUCGGGGAGGGGAGGGGAGGAAAGUAUUAUGUUACGCCGUUCGGAUCUGCACUUCCA	0.999
UUUAUCAUGAGGAGCUCAACGCGCCCAUACGGAGAAACAAAGAAGAGCCCAAGGCCCGGCCCUUGAGAGUAGGUGACACGGAGAAGCCAG	-0.445
AAGUCCUGUGCUACACAUCGUAUGUACCGAAUCGGGGCCCGGGGCCCGGCCCGGGGAAAGUAUUAUGUUACGCCGUUCGGAUCUGCACUU	-0.899
UCAAGUCCUGUGCUACACAUCGUAUGUACCGAAUCGGAAAGGUGGAAAAAAAGGAAAGUAUUAUGUUACGCCGUUCGGAUCUGCACUUCC	-1.36
CUCAAGUCCUGUGCUACACAUCGUAUGUACCGAAUCGGGAAGGAAGGGAAGGGAAAGUAUUAUGUUACGCCGUUCGGAUCUGCACUUCCA	0.22
UCAAGUCCUGUGCUACACAUCGUAUGUACCGAAUCGGGUUUUUGGGAGGGAGGGAAAGUAUUAUGUUACGCCGUUCGGAUCUGCACUUCC	0.73
UCCUGUGCUACACAUCGUAUGUACCGAAUCGGGCCCCCCGGGCCCCCCGGCCCCCCGGGAAAGUAUUAUGUUACGCCGUUCGGAUCUGCA	-0.67

Block 4 — technique: protein binding microarray; form: double-stranded DNA, one strand shown; matrix: in vitro; concentration: not given; reference: not given; reading: higher = stronger binding
Target: Histone acetyltransferase KAT6A, winged helix 2, GST fusion (KAT6A, Homo sapiens, UniProt Q92794, residues 85-181)
Setting: 8-mer, flanks averaged, mean of 2 arrays, mostly near background
Target sequence (chain): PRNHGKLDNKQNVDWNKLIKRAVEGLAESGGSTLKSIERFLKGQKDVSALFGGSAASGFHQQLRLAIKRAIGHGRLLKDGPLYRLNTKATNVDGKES
Strand	E-score
AAACGGGA	-0.0919
AATAAGGA	-0.197
ATGTAAAA	-0.0614
AGGTATGA	0.0881
AACTTTGA	0.0485
ATGAGGTA	-0.0626
ATGCACCA	0.0374
AGTGGATG	-0.0411
CCCAAAAC	0.114
AGAAGCCT	0.0144
AAAGTGGT	-0.0968
ACTGTGCT	0.0329
CATCTTCC	0.0685
AGTCATGG	-0.226
ATAGCTAT	-0.0511
TACGGAGA	-0.0818
GTCTAAAA	-0.108
CCTGTGGC	0.0926
GCACCGAC	0.129
CGCTTCCC	0.0189
ACCAGACA	0.108
GACTCTAC	-0.17
CACCAGCG	0.141
